Results collected from several papers.
Numbered parts are unrelated; each lists some results of a single study.

Series 1
Target: RNA binding protein fox-1 homolog 2, RRM domain, GST-SBP tag (RBFOX2, Homo sapiens, UniProt O43251-10, residues 100-194)
Method: RNA Bind-n-Seq
Form: RNA
Matrix: in vitro
Tested at: 365 nM
Setting: natural RNA segment, single round, ends assumed
Reference: no-protein control
Direction: higher = stronger binding
Residues (chain): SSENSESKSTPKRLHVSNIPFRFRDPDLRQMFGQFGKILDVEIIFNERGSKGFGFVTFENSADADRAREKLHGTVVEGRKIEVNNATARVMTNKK
Strand	RBNS enrichment (R)
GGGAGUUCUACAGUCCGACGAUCUUUUUUUCUCUAGGGAGAGGUACAGUGUUUAUAUUUUGGAGCCUUCCUGAAGGUGUAAAAUUGUAAAUAUUUUUAUCUAUGAGUAAAUGUUAAGUAGUUGUUUUAAAAUAUGGAAUUCUCGGGUGCCAA	0.438
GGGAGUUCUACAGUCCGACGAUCCUGUGAGUUGGGAAUUCCUGCGUGGCGACUUUCUCUGAGGCCCACAGAGAAUCAGGUAACAUUGCACAGCCUGCGUUCUCCUGCAGUGGUGGCACGCCUUGUGCUGACGAUGGAAUUCUCGGGUGCCAA	0.477
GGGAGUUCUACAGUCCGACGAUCGCCCUGCUGCCAGUCAUCUCCACUGAAUAAAGAAUAAUGCUCCUCUUUCAGGGUAAUAAAGUGGGGAAAAGGAACGUCUUCUCAAUGCAAGAACAUAAGCUUUCUCGUAUUGGAAUUCUCGGGUGCCAA	0.34
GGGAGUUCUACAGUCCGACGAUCCUCAGGCAGGCCUGACCCGGCGGCACAGCCUGGCAGGGACCUCGUCCCCAAGCCUGGCAGAAUGAGAGGGGUUGAGGUCCCGAGCGCCACUCCUAGCCUUGCCGCCUUCAUGGAAUUCUCGGGUGCCAA	1.31
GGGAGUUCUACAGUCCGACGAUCUCUGCCAAAAUACUUGAACACUGUGUUUUAUUGUGGUAAUUAUGUUUUGUGACUCAAACUUCUGUGCUGGGUGAAGUACCCAUUGUGAUUGUGGAAGCUAGAAUUCAAUUUGGAAUUCUCGGGUGCCAA	1.47
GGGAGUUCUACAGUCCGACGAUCAAAAAAAAAAUGCAAAUCCGGGAUGGAUAAAUGUAGGGUUUUGGUCACUGUCCCCAUCGGCUCCUCAGAGUUGUUGGCCACCCUACCACUAACUGGAAGAGGAAACGCUGUGGAAUUCUCGGGUGCCAA	0.333
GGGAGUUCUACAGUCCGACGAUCAGAACCUUUUUCACUAGGAAAUAAGAUUCAUUUCUUUCGGCAGUAGAUGUAGAUUCAUCUUUUAACGUUUCUUCAAAUUUGUUUCUGUCAGGCUUUGUGUUAUUUUAAAUUGGAAUUCUCGGGUGCCAA	1.97
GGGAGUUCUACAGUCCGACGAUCACACACACCAGAUGGCAUCCUUGGGACCUGAAUCUAUCACCCAGGAAUCUCAAACUCCCUUUGGCCCUGAACCAGGGCCAGAUAAGGAACAGCUCGGGCCACUCUUCUGAUGGAAUUCUCGGGUGCCAA	0.355
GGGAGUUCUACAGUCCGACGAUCAGCUUAGCAUUUUCAGUACUCACUGCUGAUCCUUGGUAGAAGUGCAGACUAGAAUAGAGCUAAAAAUCACGUAUCAACACAGAAUAGCACAUGGUAUUUUGAGUCUUUUUUGGAAUUCUCGGGUGCCAA	0.839
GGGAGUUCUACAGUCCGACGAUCCCAGGGUCAAAGGUGAAGAAAGCAAGCUCACUGCCUGCACACGGAGAUUGUCUUUCUGCCACAGAACAGCUGCAAACGUGUCAGGAGGUUAGCUGAGAAAGAAAUCGGGCUGGAAUUCUCGGGUGCCAA	0.959
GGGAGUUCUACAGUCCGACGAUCCAAGGAAUAUUUUUUAAAGAGGAUUCUCAUAAGGAAAGCAAUGACUGUUCUUGCGGGGGAUAAAAAAGGGCUUGGGAGAUUCAUGCGAUGUGUCCAAUCGGAGACAAAAGUGGAAUUCUCGGGUGCCAA	0.658
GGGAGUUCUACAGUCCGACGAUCACUUCAGCUUCACAGAUUCAACAUUUCACUGAGGGAAGCCCUGAAAACAGGACAAAGAGCUCUGCAGCAUCCUCAUGCCCUAUUACAUUCUCAGCCCAGUGGGCCUCAGCUGGAAUUCUCGGGUGCCAA	1.01

Series 2
Target: Ras GTPase-activating protein-binding protein 1, full length (G3BP1, Homo sapiens, UniProt Q13283)
Sequence of UniProt Q13283 (whole entry, looked up): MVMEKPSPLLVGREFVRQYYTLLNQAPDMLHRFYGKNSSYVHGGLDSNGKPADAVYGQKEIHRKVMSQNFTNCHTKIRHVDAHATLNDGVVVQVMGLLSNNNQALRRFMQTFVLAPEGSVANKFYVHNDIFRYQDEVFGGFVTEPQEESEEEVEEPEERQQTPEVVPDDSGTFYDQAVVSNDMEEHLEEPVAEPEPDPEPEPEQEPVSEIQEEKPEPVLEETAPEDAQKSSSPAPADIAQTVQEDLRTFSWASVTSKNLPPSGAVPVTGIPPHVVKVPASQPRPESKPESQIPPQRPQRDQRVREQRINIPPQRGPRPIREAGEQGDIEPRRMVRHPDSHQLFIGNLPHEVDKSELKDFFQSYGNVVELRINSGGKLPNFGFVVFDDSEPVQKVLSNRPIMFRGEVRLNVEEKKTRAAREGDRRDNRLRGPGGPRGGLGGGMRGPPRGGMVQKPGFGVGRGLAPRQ
Method: RNA Bind-n-Seq
Form: RNA
Matrix: in vitro
Tested at: 200 nM
Setting: whole 134-nt RNA, ends assumed
Added: 150 mM KCl
Reference: input library
Direction: higher = stronger binding
Strand	log2 enrichment
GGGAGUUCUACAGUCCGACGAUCCAAGUCCUGUGCUACACAUCGUAUGUACCGAAUCGGGAAAGGGGAAAGGAAAGGGAAAGUAUUAUGUUACGCCGUUCGGAUCUGCACUUCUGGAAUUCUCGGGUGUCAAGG	-0.438
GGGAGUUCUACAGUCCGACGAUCGCAGGAAGUAAAAACAAAUGGAAAUGCUUCGGAUAGUGGCAGGGGUGGGGGUUGCUAAGGAAAGGGUGGGAUGGGAGUGGGUAAAGAGUCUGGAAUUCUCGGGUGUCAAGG	0.673
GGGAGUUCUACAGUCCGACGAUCUGGCCCUGGUGGCAUGCGGGGAGGAAGAGGUGGCCUCAUGGAUCGUGGUGGUCCCGGUGGAAUGUUCAGAGGUGGCCAUGGUGGAGACAGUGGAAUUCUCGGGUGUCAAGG	-0.0424
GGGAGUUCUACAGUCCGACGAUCAAGUCCUGUGCUACACAUCGUAUGUACCGAAUCGGGGAGGGGAAAGGGGUUUGGGGAAAGUAUUAUGUUACGCCGUUCGGAUCUGCACUUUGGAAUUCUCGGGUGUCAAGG	0.872
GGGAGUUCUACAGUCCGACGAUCAAGUCCUGUGCUACACAUCGUAUGUACCGAAUCGGUUUUGGGGUUUUGGUUUUGGGGAAAGUAUUAUGUUACGCCGUUCGGAUCUGCACUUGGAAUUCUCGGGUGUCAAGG	-0.858
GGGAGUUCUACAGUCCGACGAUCAAGUCCUGUGCUACACAUCGUAUGUACCGAAUCGGUUUUUGGAAAAAAAGGUUUGGAAAGUAUUAUGUUACGCCGUUCGGAUCUGCACUUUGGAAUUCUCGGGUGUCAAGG	-1.51
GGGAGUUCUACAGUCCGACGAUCUGUGCUACACAUCGUAUGUACCGAAUCGGGGUUUUUGGGGUUUUUUUGGGGAAAAAAAGGGGAAAGUAUUAUGUUACGCCGUUCGGAUCUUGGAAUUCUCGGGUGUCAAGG	-0.295
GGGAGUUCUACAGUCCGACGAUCAGUCCUGUGCUACACAUCGUAUGUACCGAAUCAAAUUUUUUUAAAUUUAAACCCAAAAAAGUAUUAUGUUACGCCGUUCGGAUCUGCACUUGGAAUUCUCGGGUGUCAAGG	-0.584
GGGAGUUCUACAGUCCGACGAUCUAACUUUAGAGGAGGAUCUGAUGGAUAUGGCAGUGGACGUGGAUUUGGGGAUGGCUAUAAUGGGUAUGGAGGAGGACCUGGCGGUGGCAAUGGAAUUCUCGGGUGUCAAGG	0.0556
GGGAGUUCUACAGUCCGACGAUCACCAUGCAGGUGGGCAUCUUUGGGAAGUGGGGCAAGGGGGGGAUAGGGAGGGGGGUAACACUUUGGGAACAGGUGGUCCCAGGUCGAAACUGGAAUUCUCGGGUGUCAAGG	1.38
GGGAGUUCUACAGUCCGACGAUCCUCAAGUCCUGUGCUACACAUCGUAUGUACCGAAUCGGGGAGGGGAGGGAGGGAAAGUAUUAUGUUACGCCGUUCGGAUCUGCACUUCCAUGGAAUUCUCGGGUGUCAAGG	1.41
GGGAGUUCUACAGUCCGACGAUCUCCUGUGCUACACAUCGUAUGUACCGAAUCGGUUUUUUGGUUUUUUGGGGUUUUUUGGGAAAGUAUUAUGUUACGCCGUUCGGAUCUGCAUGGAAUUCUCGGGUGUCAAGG	-0.635
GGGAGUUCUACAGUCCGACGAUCUCAAGUCCUGUGCUACACAUCGUAUGUACCGAAUCGGGAGGGUUUUUGGGAGGGAAAGUAUUAUGUUACGCCGUUCGGAUCUGCACUUCCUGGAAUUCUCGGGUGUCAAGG	0.772
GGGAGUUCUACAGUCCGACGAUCCUCAAGUCCUGUGCUACACAUCGUAUGUACCGAAUCGGAGGUGGUUUUUUUGGAAAGUAUUAUGUUACGCCGUUCGGAUCUGCACUUCCAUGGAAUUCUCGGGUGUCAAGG	-0.687

Series 3
Target: Histone acetyltransferase KAT6A, winged helix 1, GST fusion (KAT6A, Homo sapiens, UniProt Q92794, residues 1-85)
Method: protein binding microarray
Form: double-stranded DNA, one strand shown
Matrix: in vitro
Tested at: not given
Setting: 8-mer, flanks averaged, mean of 2 arrays, mostly near background
Reference: not given
Direction: higher = stronger binding
Construct (chain): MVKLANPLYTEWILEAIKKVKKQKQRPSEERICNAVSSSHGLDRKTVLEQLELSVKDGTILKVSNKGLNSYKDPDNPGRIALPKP
Strand	E-score
ACAGGTCA	-0.119
CGGGTAAG	0.208
TGACGAAA	-0.195
AACTTACG	0.0977
ATGGTGGG	-0.0375
GTCCTAAC	-0.0628
CGCTAATC	0.136
CACACATA	-0.292
GCAACTGA	0.00012
TTTAAAAA	-0.127
GACTCATC	-0.0272
CTTGCAGA	-0.0826
CCAGTGAG	-0.197
ACACACTG	-0.011
CATAAAGC	-0.0785
AACAACTC	-0.258
AGCACTAC	-0.071
CGGTGAGC	0.143
CACTGCTA	-0.141
AGGCTGTG	-0.222
GAAAGGAC	-0.0536
AACCCTTC	-0.0192
CATTAAGC	-0.0855
AATGCGAT	-0.0437
CAGGTCCC	0.202

Series 4
Target: Interferon regulatory factor 7, full length, phosphomimetic (IRF7, Homo sapiens, UniProt Q92985, residues 1-503, S471D/S472D/S475D/S476D/S477D/S483D/S484D/S487D)
Sequence of UniProt Q92985 (whole entry, unmodified, looked up): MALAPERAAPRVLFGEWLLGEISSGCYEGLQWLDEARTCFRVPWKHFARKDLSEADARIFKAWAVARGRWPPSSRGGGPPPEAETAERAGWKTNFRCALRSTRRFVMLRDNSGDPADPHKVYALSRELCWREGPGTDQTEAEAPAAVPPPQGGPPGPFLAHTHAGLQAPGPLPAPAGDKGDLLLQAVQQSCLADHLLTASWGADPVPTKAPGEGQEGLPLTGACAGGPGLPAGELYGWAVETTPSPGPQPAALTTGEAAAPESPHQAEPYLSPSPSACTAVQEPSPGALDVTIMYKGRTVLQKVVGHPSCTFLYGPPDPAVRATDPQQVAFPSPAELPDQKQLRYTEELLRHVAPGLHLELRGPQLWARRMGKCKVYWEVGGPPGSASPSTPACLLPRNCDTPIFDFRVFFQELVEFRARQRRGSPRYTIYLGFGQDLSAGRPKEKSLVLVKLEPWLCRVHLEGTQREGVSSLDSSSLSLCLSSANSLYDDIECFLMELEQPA
Method: protein-binding microarray
Form: double-stranded DNA, one strand shown
Matrix: in vitro
Tested at: 2200 nM top
Setting: 60-bp whole probe
Added: salmon DNA 0.4 mg/ml
Reference: random background probes
Direction: higher = stronger binding
Constant ends, left off below: GCCTAGCAC … GTCTTGATTCGCTTGACGCTGCTG
Strand	fitted relative affinity [z-score]
GACGATATCAGTATCGAGACGTGCTAG	0.212
TCACATGTCTGTGTCACACTGTGCTAG	1.34
TCATTTCTCCTTTCGGAACTGTGCTAG	4.3
TTAGATCTCAGACTGTATTAGTGCTAG	-0.0239
TTAGGTAGCCTACTGCTTTAGTGCTAG	-0.0711
TTAGGACTGGAATTTCGGTTAGTGCTA	1.88
TGCCTTTTTTTTTTTTTCTGGTGCTAG	1.55
GACGGTTTCCTTTTCCTCACGTGCTAG	5.6
TCAATTTCTGTTTTTGCACTGTGCTAG	3.99
TTTGATTTCAGTCTCGATTAGTGCTAG	1.57
GACGGTTTTGGGTATCGGGACGTGCTA	1.28
GACGATTTCAGCCTCGAGACGTGCTAG	0.645
GACGGTTTCCTCTTCCTGACGTGCTAG	3.43
GACGAAGTGGGGACTGGAGACGTGCTA	-0.338
TTATATTTTAATCACATATAGTGCTAG	0.431
GACGGTATCGGGTATCGGGTCGTGCTA	0.34
TGAGAACTGGGGACTGGATTAGTGCTA	-0.492
TCAAGTTTTCTTTTCATACTGTGCTAG	3.8
TTAGGTATCGACGTTCGGTTAGTGCTA	0.806
GACGAACTGGGGTATCGTGACGTGCTA	0.108
TCAAAAATCTTTGTTGGAACTGTGCTA	-0.647
GACGGTTTCCTTCTCCCGACGTGCTAG	3.28

For quick reference, copied from above (series 4):
Strand	fitted relative affinity [z-score]
TGAGAACTGGGGACTGGATTAGTGCTA	-0.492
GACGGTTTCCTCTTCCTGACGTGCTAG	3.43
GACGATATCAGTATCGAGACGTGCTAG	0.212
TGCCTTTTTTTTTTTTTCTGGTGCTAG	1.55
TCATTTCTCCTTTCGGAACTGTGCTAG	4.3
GACGGTTTCCTTTTCCTCACGTGCTAG	5.6
TCACATGTCTGTGTCACACTGTGCTAG	1.34
